Results from different studies.
Parts stem from different laboratories: compare values within a part only. Substitutions count along the parent as printed.

Sample 1
Target: RING finger protein unkempt homolog, zinc fingers 1-6, GST-SBP tag (UNK, Homo sapiens, UniProt Q9C0B0, residues 30-357)
Technique: RNA Bind-n-Seq
Form: RNA
Matrix: in vitro
Concentration: not given
Notes: RNA with constant flanks, human and mouse sites, ends assumed
Baseline: input RNA pool
Reading: higher = stronger binding
Constant ends, left off below: GGGAGUUCUACAGUCCGACGAUC … CAACAGAGGAUUGAGCAUCA
Construct (chain): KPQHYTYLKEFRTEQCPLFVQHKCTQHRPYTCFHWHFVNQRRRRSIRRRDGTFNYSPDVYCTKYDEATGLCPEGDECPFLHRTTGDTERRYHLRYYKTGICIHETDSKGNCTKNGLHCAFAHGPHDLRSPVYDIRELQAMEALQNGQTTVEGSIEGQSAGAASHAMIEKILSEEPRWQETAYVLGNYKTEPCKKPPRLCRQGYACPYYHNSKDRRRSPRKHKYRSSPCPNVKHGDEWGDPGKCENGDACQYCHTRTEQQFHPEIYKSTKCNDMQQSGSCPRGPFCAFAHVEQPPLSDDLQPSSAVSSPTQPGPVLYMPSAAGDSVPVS
Strand	bound/input enrichment [ratio]
AAAAGGAAAAGGAAAUGCUUUUGGUUGGGCAUGGAUGGGCUGGAGGCUGCCGAGGGGUCCAGUACUGGAAGCUCAGAGGACAGCUCAGAGGAUGACAGUGAGGAUGCUCCUGGGACUUCG	0.124
UUGGAUUUGAUGCCUUGGGAGUCAGACCUAUGGAGCCCCGGCAGCCACUUCUGCUCAGACAUGAAGGCAGAGCCCCAGCCUCUUUCUCCGGCUUCCUCCAGUUGCUCCAUCUCCUCUCCU	0.19
GAUCAGAGCUGAUCAACUCCUUUAGGAUUGCCUGUGGAGGAUACCUUCAGUCGAAGUUUUUUUAGCCCUCACUGAGCUACUUCCAAGUUUGGAAGUACUUAGUGACCUUGGUGAGUUUCU	9.47
UUGCUUUGCUGGUUUCAUAUUUAUUUGUUGUAUUUAAAAAAUACAUUGUUGUAAGAGUGAUUUUUUCAAUAUAUUUUAUUCCUGGGGGGGAUCAUGCUACACUCUCAAAAGAAAAUUAAG	0.813
UACUUCGAAUGCCAGGCCAAGUAUGGCGCCUUUGUCAAGCCAGCAGUCGUGACGGUGGGGGACUUCCCGGAGGAGGACUACGGGUUGGACGAGAUAUGACACCUAAGGAAUUCCCCUGCU	0.062
AAGAACAUUCGGAUUGUGGUGAUGAACAAUCUUUUACCAAGAUCGGUAAAAAUGCAUAUCAAAUAUGACCUCAAAGGCUCAACCUACAAACGGCGGGCUUCCCAGAAAGAGCGAGAGAAG	0.158
AUGCAAGCUGAACUGAAUCGCCUCCAAGCAGAAAAUGAUGCUUCUAAAGAAGAAGUCAAAGAAGUUUUACAGGCCUUAGAGGAACUGGCUGUUAAUUAUGAUCAGAAGUCUCAGGAAGUU	0.0796
AAUUCUUGUAAUAUGUUGAUUCAGUGUUUUGUAAAUGAAGUCGUAUGUAUUUUCAGAGUAUUUUUGUAUGUACUGUAAGAUACCAUCUUUUCAAAGAGAAACGUUUAAAACCUUUAUUGU	0.136

Sample 2
Target: Interferon regulatory factor 5, full length, phosphomimetic (IRF5, Homo sapiens, UniProt Q13568-2, residues 1-514, K96S/S451D/S453D/S456D/S462D)
Technique: protein-binding microarray
Form: double-stranded DNA, one strand shown
Matrix: in vitro
Concentration: 250 nM
Notes: 60-bp whole probe
Together with: salmon DNA 0.4 mg/ml
Baseline: random background probes
Reading: higher = stronger binding
Constant ends, left off below: GCCTAGCAC … GTCTTGATTCGCTTGACGCTGCTG
Strand	log fluorescence
GACGGACTGCTTTTCCTGCCGTGCTAG	-0.118 z-score
GGACTGTCAGCCACTTTTTGGTGCTAG	-0.188 z-score
TTAGGTCTCCTACTGCTTAAGTGCTAG	-0.207 z-score
TCAGATGTGTATATGACACTGTGCTAG	-0.0973 z-score
GACGAACTGGAGACTGGAGACGTGCTA	-0.453 z-score
GACGGTTCCGGCTTCGGGACGTGCTAG	0.253 z-score
CCCTAATTCTGATTGGATAAGTGCTAG	0.043 z-score
AACGGTCTCGGTATCGGGACGTGCTAG	1.26 z-score
AGACAGTTGAGTTCTGTTGCAGTGCTA	-0.162 z-score
TTAGGACCGCTTCTCCTTTAGTGCTAG	-0.0413 z-score

Sample 3
Target: ABI1, truncated, D143A, DHFR fusion (Arabidopsis thaliana, UniProt P49597)
Technique: DHFR PCA, dose-response
Matrix: yeast
Notes: Hill fit, mean, not affinity
Together with: (+)-ABA, dose series
Reading: lower = more sensitive
Starting sequence: PYL1, truncated, DHFR fusion (Arabidopsis thaliana, UniProt Q8VZS8); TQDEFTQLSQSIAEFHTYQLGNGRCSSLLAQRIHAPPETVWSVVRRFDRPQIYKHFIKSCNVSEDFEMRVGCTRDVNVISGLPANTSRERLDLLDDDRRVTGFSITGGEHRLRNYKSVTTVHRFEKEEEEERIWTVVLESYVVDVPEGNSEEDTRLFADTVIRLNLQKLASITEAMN
Variant	ABA EC50 [µM]
Q2K	1.94
P83C	130
V145A	42.4
V62L	3.01
V145P	67.1
E130S	1.6
I133D	0.85
G107N	59.8
L164F	1.51
D144M	74.3

Sample 4
Target: Hepatocyte nuclear factor 3-beta, forkhead domain (FOXA2, Homo sapiens, UniProt Q9Y261, residues 142-269)
Technique: protein-binding microarray
Form: double-stranded DNA, one strand shown
Matrix: in vitro
Concentration: not given
Notes: k-mer, scored over probes, only values ≥0.25
Reading: higher = stronger binding
Residues (chain): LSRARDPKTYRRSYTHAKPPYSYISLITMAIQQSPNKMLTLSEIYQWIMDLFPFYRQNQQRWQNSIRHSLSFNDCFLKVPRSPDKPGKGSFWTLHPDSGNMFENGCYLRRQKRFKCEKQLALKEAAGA
Strand	E-score
GTCTGTTA	0.346
GGGACATA	0.276
AACCATAT	0.306
ACATTACA	0.356
CTGATTAC	0.253
TTAAAGAA	0.256
CAGTATTC	0.266
AAACAGAT	0.291
ACACGTAA	0.307
GGAAATAA	0.265
GTATGTTA	0.316
CGTTACAA	0.268
GACAAATA	0.395
ATCACATC	0.254
GATATGTA	0.271
ATTGTTTA	0.349
TATATGGA	0.295
CTATAACA	0.255

Sample 5
Target: Phosphate system positive regulatory protein PHO4, full length, GST-tagged (PHO4, Saccharomyces cerevisiae, UniProt P07270, residues 1-312)
Technique: competition protein-binding microarray
Form: double-stranded DNA, one strand shown
Matrix: in vitro
Concentration: 2 µM
Notes: whole 60-bp probe, lowest competitor level
Together with: Cbf1 competitor, 0.05 µM
Reading: higher = stronger binding
Constant ends, left off below: … GTCTTGATTCGCTTGACGCTGCTG
Target sequence (chain): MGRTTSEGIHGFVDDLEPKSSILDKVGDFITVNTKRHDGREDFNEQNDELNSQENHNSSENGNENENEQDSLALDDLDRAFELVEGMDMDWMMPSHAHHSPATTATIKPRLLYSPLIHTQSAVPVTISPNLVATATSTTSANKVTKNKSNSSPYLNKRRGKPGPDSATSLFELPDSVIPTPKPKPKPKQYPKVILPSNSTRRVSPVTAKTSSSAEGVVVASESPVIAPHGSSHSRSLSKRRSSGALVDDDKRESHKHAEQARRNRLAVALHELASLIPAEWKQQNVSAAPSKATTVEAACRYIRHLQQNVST
Strand	fluorescence intensity
CATACCCAACCTTGTCACGGTACTTAAGATATTTGT	4710 a.u.
GGAGCCCTTGCACTCCACGTGGCCTGCCTCCCTGGG	18600 a.u.
AAAGCGGTAATTTGCGTCGTGGGTGCAGATATCTAT	7610 a.u.
GGTTTGTCCGTTTTATGACTCTCCTCAACAAGATAT	3670 a.u.
ACAGCGAGGCCATTGCACGTGCAAATAAATTGAATC	18800 a.u.
TGCGCAACAACTTGCACTGTGGGTGTATGTCTAGAA	4880 a.u.
GTCTTGTCTCATTGACTGGTGGGTGTCCCCACTTCA	4480 a.u.
CTAACGAAGGTTTGAGGTGTGGGTGACAAGCCAAGT	4890 a.u.
CGGGCCTCAGGCAGCCACGAGGTAGACGGGCTCAGG	10000 a.u.
AAACTAATGGATTGGCGCGTGTACTATATATATTCA	9820 a.u.
GTTAATTTATTCCATCACGGCTGTAATGTAACCAAC	4500 a.u.
GTCTTGTCTCATTTTCACGTGGCTTTCCCCACTTCA	12100 a.u.
TCGATGACAATTTTACACATGAAAAACGAACTATGT	3970 a.u.

Sample 6
Target: CCNB3, cyclin fold, Cln2 fusion (human)
Technique: yeast growth competition, sequencing
Matrix: yeast
Notes: weak parent motif
Baseline: not given
Reading: higher = stronger binding
Starting sequence: CDKN1B docking peptide (human); PSACRNLFGPVDH
Variant	normalised enrichment score
N6Q	0.336
R5H	0.106
S2Y	-0.278
F8I	0.287
R5A	-0.233
R5F	0.43
S2R	0.488
R5N	0.0475
A3T	0.341
A3V	0.811
R5K	0.111
F8Y	-0.144
H13F	0.788
P10D	0.435
G9C	0.24

Sample 7
Target: Prothrombin, mature alpha-thrombin (F2, Homo sapiens, UniProt P00734)
Technique: aptamer microarray, sandwich
Form: DNA with 2'F-ANA
Matrix: in vitro
Concentration: 200 nM
Notes: whole 15-mer aptamer, many near background
Together with: Cy3 exosite-II aptamer, 400 nM
Reading: higher = stronger binding
Strand: GGTTGGTGTGGTTGG
Modification	mean fluorescence intensity
2'F-ANA at 4 7 8 9 10 11 13	78.7 a.u.
2'F-ANA at 5 7 8 11 13	66.2 a.u.
2'F-ANA at 2 4 7 11 15	353 a.u.
2'F-ANA at 1 2 6 9 11 14	48.4 a.u.
2'F-ANA at 3 5 6 11 12 13 14	57.6 a.u.
2'F-ANA at 5 7 12	183 a.u.
2'F-ANA at 1 7 8 10 11 12 14	51.7 a.u.
2'F-ANA at 1 2 5 7 8 10 12 13 15	53.3 a.u.
2'F-ANA at 1 3 4 6 8 9 10 13 14 15	53.5 a.u.
2'F-ANA at 2 3 5 7 8 11 12 15	178 a.u.
2'F-ANA at 1 2 3 4 8 9 10 11 13 14 15	144 a.u.
2'F-ANA at 1 2 4 6 7 8 9 11 13 15	122 a.u.
2'F-ANA at 1 4 5 8 9 10 12 14	107 a.u.
2'F-ANA at 5 6 9 10 11 14	45.3 a.u.
2'F-ANA at 1 3 4 5 7 9 10 11 12 13 14 15	51.7 a.u.
2'F-ANA at 5 6 7 9 12 13 14 15	45.5 a.u.
2'F-ANA at 1 3 6 7 9 11 12 13 15	286 a.u.
2'F-ANA at 2 3 6 7 8 9 10 11 12 14	247 a.u.
2'F-ANA at 1 2 4 7 8 11 15	162 a.u.
2'F-ANA at 2 3 8 10 12 14	352 a.u.
2'F-ANA at 1 3 7 8 9 11 13 14 15	92.5 a.u.
2'F-ANA at 1 4 5 7 10 12 13 15	44.6 a.u.
2'F-ANA at 1 2 3 5 8 11 14 15	45.6 a.u.
2'F-ANA at 2 3 4 5 8 9 10 11 13 15	57.4 a.u.
2'F-ANA at 4 6 7 8 9 12 13	380 a.u.

Sample 8
Target: Histone acetyltransferase KAT6A, winged helix 1, GST fusion (KAT6A, Homo sapiens, UniProt Q92794, residues 1-85)
Technique: protein binding microarray
Form: double-stranded DNA, one strand shown
Matrix: in vitro
Concentration: not given
Notes: 8-mer, flanks averaged, mean of 2 arrays, mostly near background
Baseline: not given
Reading: higher = stronger binding
Target sequence (chain): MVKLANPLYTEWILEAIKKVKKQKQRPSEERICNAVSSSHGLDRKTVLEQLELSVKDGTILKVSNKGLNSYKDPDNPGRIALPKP
Strand	E-score
GCGGATAA	0.243
AAGCTACG	0.174
AGTGTCAT	-0.0699
GGGCTCAA	0.04
AAAGTGCG	0.135
TGTACTAA	-0.0567
GGACCGAC	0.239
GATATATC	-0.00802
GCGCTCAC	0.202
ACGGCGAG	0.34
ATACAGCC	0.0159
TAGCGTCA	-0.0366
GCCCATGA	0.0276
ATGGGGAG	-0.223
GGGCTTCA	0.00403

For quick reference, copied from above (sample 7):
Modification	mean fluorescence intensity
2'F-ANA at 2 3 6 7 8 9 10 11 12 14	247 a.u.
2'F-ANA at 1 2 5 7 8 10 12 13 15	53.3 a.u.
2'F-ANA at 1 3 4 5 7 9 10 11 12 13 14 15	51.7 a.u.
2'F-ANA at 4 7 8 9 10 11 13	78.7 a.u.
2'F-ANA at 1 2 6 9 11 14	48.4 a.u.
2'F-ANA at 1 2 3 5 8 11 14 15	45.6 a.u.
2'F-ANA at 1 3 6 7 9 11 12 13 15	286 a.u.
2'F-ANA at 1 2 3 4 8 9 10 11 13 14 15	144 a.u.
2'F-ANA at 1 7 8 10 11 12 14	51.7 a.u.
2'F-ANA at 2 3 8 10 12 14	352 a.u.
2'F-ANA at 4 6 7 8 9 12 13	380 a.u.
